Measurements collected from several papers.
Organism: Mycobacterium tuberculosis

The MIC of COc1ccc2[nH]c(C(=O)NC(C)C34CC5CC(CC(C5)C3)C4)cc2c1 (stereo not drawn) is reported as 2 µg/mL (microplate alamarBlue; H37Rv).
With O=C(OCc1ccccc1)c1coc(-c2ccncc2)n1 the MIC was 1 to 4 µM (H37Rv; 168 h).
N#Cc1cc2cccnc2nc1N1CCN(C(=O)CNc2ccc(Br)cc2[N+](=O)[O-])CC1 gave an MIC of greater than 101 µM (microplate Alamar Blue; H37Rv).
The MIC of Cc1[nH]c(=O)c(CNC(=O)c2ccc([N+](=O)[O-])s2)c2c1CCCC2 is reported as 5.4 µg/mL (microbial growth, resazurin; H37RV).
With Cc1c(Cc2ccc(O)cc2)c(=O)n2c([nH]c3ccccc32)c1C#N the MIC was greater than 128 µg/mL (microbial growth, resazurin; H37RV).
O=c1c2ccccc2[se]n1Cc1ccccc1 gave an MIC of 25 µg/mL (microbial growth, resazurin; H37RV).
With CCCCCCCCCCCCCC(=O)NS(=O)(=O)OC[C@H]1O[C@@H](n2cnc3c(N)ncnc32)[C@H](O)[C@@H]1O the MIC was 3.13 to 25 µM (MDR and XDR strains).
For Cc1ccc(NCC(=O)N2CCN(c3nc4ncccc4cc3C#N)CC2)cc1C, the MIC was 125 µM (microplate Alamar Blue; H37Rv).
With COc1ccc(-n2[se]c3ccccc3c2=O)cc1 the MIC was 25 µg/mL (microbial growth, resazurin; H37RV).
O=C(OCc1ccccc1)c1coc(-c2ccccc2)n1 has an MIC of 0.6 to 1.25 µg/mL (drug-sensitive clinical strain 2, 7H9 glucose glycerol BSA medium).
The MIC of Cc1cc(C(F)(F)F)c(CNC(=O)c2ccc(C(F)(F)F)nc2)c(=O)[nH]1 is reported as greater than 20 µg/mL (microbial growth, resazurin; H37RV).
For O=C(NC12CC3CC(CC(C3)C1)C2)c1ccc(NC(=O)c2cc3c(F)cc(F)cc3[nH]2)cc1, the MIC was greater than 32 µg/mL (microplate alamarBlue; H37Rv).
With [N-]=[N+]=Nc1ccc(-n2[se]c3ccccc3c2=O)cc1 the MIC was 25 µg/mL (microbial growth, resazurin; H37RV).
For O=C1c2ccccc2C(=O)c2c1oc(NC1CCCCC1)c2-c1ccc(Cl)cc1, the MIC was 39 µM (resazurin microplate; H37Rv; 7 days + 24 h).
O=C(Nc1cc(Cl)cc(Cl)c1)NC12CC3CC(CC(C3)C1)C2 gave an MIC of 1.47 µM (microbial growth, resazurin; H37RV).
The MIC of COc1ccc(-c2ccc(C(=O)NCc3c4c(c(C)[nH]c3=O)CCCC4)cc2)cc1 is reported as 25 µg/mL (microbial growth, resazurin; H37RV).
The MIC of CC(C)c1ccc(-c2cncc(CN3CC[Si](C)(C)CC3)c2)cc1 is reported as 0.5 to 1 µg/mL (microbial growth, resazurin; H37RV).
CCc1nc2ccc(Cl)cn2c1C(=O)NCc1ccc(S(F)(F)(F)(F)F)cc1 gave an MIC of 0.01 µM (microbial growth, resazurin; H37RV).
The MIC of Cc1c2c([nH]c(=O)c1CNC(=O)c1ccc(C(F)(F)F)nc1Cl)CCCC2 is reported as 26.3 µg/mL (microbial growth, resazurin; H37RV).
With CC(C)(C)Nc1oc2c(c1C1CCN(C(=O)OC(C)(C)C)CC1)C(=O)c1ccccc1C2=O the MIC was greater than 147 µM (resazurin microplate; H37Rv; 7 days + 24 h).
The MIC of Clc1ccc2c(c1)C=CC1(CCc3c(nnn3Cc3ccccc3)C1)O2 (stereo not drawn) is reported as 12.5 µg/mL (microbial growth, resazurin; H37RV; 7 days).
O=C(NNc1ccccc1)c1cc2c(F)cc(F)cc2[nH]1 has an MIC of greater than 32 µg/mL (microplate alamarBlue; H37Rv).
The MIC of COc1cccc(Nc2ccc(N)c3nonc23)c1 is reported as 32 µM (microbial growth; H37RV).
The MIC of NNC(=O)c1ccncc1 is reported as 2 to 4 µM (H37Rv; 6 days).
For CC(C)(C)Nc1oc2c(c1-c1cccc(Br)c1)C(=O)c1ccccc1C2=O, the MIC was greater than 147 µM (resazurin microplate; H37Rv; 7 days + 24 h).
N#Cc1cc2cccnc2nc1N1CCN(C(=O)CNc2cccc(C(F)(F)F)c2)CC1 gave an MIC of 56.8 µM (microplate Alamar Blue; H37Rv).
Cc1cc(=O)[nH]c2c1C(=O)c1c(CCCCCCC(C)C)cc(=O)[nH]c1C2=O has an MIC of 0.04 µg/mL (Microplate Alamar Blue; H37Rv; replicating bacteria).
The MIC of Cc1cccc(Cc2c(C)c(C#N)c3[nH]c4ccccc4n3c2=O)c1 is reported as 8 µg/mL (microbial growth, resazurin; H37RV).
With Cc1cc(C)cc(NCC(=O)N2CCN(c3nc4ncccc4cc3C#N)CC2)c1 the MIC was greater than 125 µM (microbial growth, resazurin; H37RV).
Cc1[nH]c(=O)c(CNC(=O)c2ccc(Br)o2)c2c1CCCC2 gave an MIC of 3.4 µg/mL (microbial growth, resazurin; H37RV).
N#Cc1cc2cccnc2nc1N1CCN(C(=O)CNc2ccc(Cl)cc2)CC1 gave an MIC of 61.4 µM (microplate Alamar Blue; H37Rv).
O=C(NC12CC3CC(CC(C3)C1)C2)c1ccc2ccccc2c1 gave an MIC of no more than 4 µg/mL (microbial growth, resazurin; H37RV).
With Cc1c(Cc2ccccc2)c(=O)n2c([nH]c3ccccc32)c1C#N the MIC was 8 µg/mL (microbial growth, resazurin; H37RV).
The MIC of Clc1ccc2c(c1)C=CC1(CCc3c(nnn3-c3ccccc3)C1)O2 (stereo not drawn) is reported as 6.25 µg/mL (microbial growth, resazurin; H37RV; 7 days).
O=C1C(O)=C([C@H]2CC[C@H](c3ccc(Cl)cc3)CC2)C(=O)c2ccccc21 gave an MIC of greater than 147 µM (resazurin microplate; H37Rv; 7 days + 24 h).
CC(NC(=O)c1cc2c(Cl)cc(Cl)cc2[nH]1)C12CC3CC(CC(C3)C1)C2 (stereo not drawn) has an MIC of 0.125 µg/mL (microplate alamarBlue; H37Rv).
Cc1cc2c(cc1Cl)C=CC1(CCc3c(nnn3Cc3ccccc3)C1)O2 (stereo not drawn) has an MIC of 25 µg/mL (microbial growth, resazurin; H37RV; 7 days).
Cc1c(Cc2cccc(OC(F)(F)F)c2)c(=O)n2c([nH]c3ccccc32)c1C#N gave an MIC of 64 µg/mL (microbial growth, resazurin; H37RV).
With NNC(=O)c1ccncc1 the MIC was 0.055 µg/mL (microbial growth, resazurin; H37RV; 7 days).
N#Cc1cc2cccnc2nc1N1CCN(C(=O)CNc2ccc(F)c(F)c2)CC1 has an MIC of greater than 122 µM (microplate Alamar Blue; H37Rv).
For Cc1[nH]c(=O)c(CNC(=O)c2ccc(Cl)nc2)c2c1CCCC2, the MIC was 4.9 µg/mL (microbial growth, resazurin; H37RV).
With N#Cc1cc2cccnc2nc1N1CCN(CC(=O)Nc2ccc(Br)cc2)CC1 the MIC was 55.4 µM (microplate Alamar Blue; H37Rv).
The MIC of Cc1c2c([nH]c(=O)c1CNC(=O)c1ccc(-c3ccccc3)o1)CCCC2 is reported as greater than 50 µg/mL (microbial growth, resazurin; H37RV).
Cc1c(Cc2ccc(F)cc2)c(=O)n2c([nH]c3ccccc32)c1C#N has an MIC of 2 µg/mL (microbial growth, resazurin; H37RV).
With N#Cc1cc2cccnc2nc1N1CCN(CC(=O)Nc2cccc([N+](=O)[O-])c2)CC1 the MIC was 29.9 µM (microplate Alamar Blue; H37Rv).
COc1cc(Cc2ccc(C(=O)NCc3c4c(c(C)[nH]c3=O)CCCC4)cc2)cc(OC)c1 gave an MIC of 15 µg/mL (microbial growth, resazurin; H37RV).
With COc1cc(-c2c(NC3CCCCC3)oc3c2C(=O)c2ccccc2C3=O)cc(OC)c1OC the MIC was greater than 147 µM (resazurin microplate; H37Rv; 7 days + 24 h).
With O=C1NN=C(N=Cc2ccc(O)cc2O)C1=NNn1c(-c2ccccc2)nc2ccccc2c1=O the MIC was 26.7 µM (microbial growth, resazurin; H37RV).
